# Measurements from different studies.
# Numbers after ± are the reported error.
SMILES,assay,test system,setting,tissue uptake [%ID/g]
CN1C(=O)[C@@H](Cc2ccc(O)c(I)c2)NC(=O)CNC(=O)[C@H](Cc2ccc3ccccc3c2)NC(=O)[C@H](CCCNC(=N)N)NC(=O)[C@H]1CCCNC(=O)c1ccc(CNC(=O)CN2CCN(CC(=O)O)CCN(CC(=O)O)CCN(CC(=O)O)CC2)cc1 [lutetium-177 labelled],item: 177Lu radioactivity,"female CB-17 SCID mice, Daudi xenograft, spleen","intravenous, 0.16 nmol per mouse, 1 h",1.8 ± 0.3
CN(C)c1ccc(-c2nc3ccc(OCCCCCN4CCN5CCN(CC4)CC(=O)[O][Al]([18F])[O]C(=O)C5)cc3s2)cc1,,"ICR mouse, muscle","intravenous, 2 min",3.28 ± 0.47
CC(C)[C@H](NC(=O)[C@@H]1CCCN1C(=O)[C@H](CCCNC(=N)N)NC(=O)[C@H](CS)NC(=O)[C@H](Cc1c[nH]c2ccccc12)NC(=O)[C@H](CCCNC(=N)N)NC(=O)[C@@H](Cc1ccccc1)NC(=O)[C@H](Cc1c[nH]cn1)NC(=O)[C@H](CCC(=O)O)NC(=O)[C@H](CS)NC(=O)[C@H](CS)NC(=O)CNC(=O)[C@@H]1CC(=O)N[C@@H](CCCNC(=N)N)C(=O)NCC(=O)N[C@@H](CC(=O)O)C(=O)N[C@H](Cc2ccc(O)cc2)C(=O)N1)C(N)=O [technetium-99m labelled],,"C57 mouse, female, B16/F1 melanoma, heart","intravenous, 0.037 MBq, 24 h",0.2 ± 0.05
NC12CNCCNCC(NCc3ccc(CNC(=O)CCCC(=O)NCc4ccc(-c5nncnn5)cc4)cc3)(CNCCNC1)CNCCNC2.[64Cu+2],,"athymic nude mice, SW1222 xenograft, stomach, with contents","24 h p.i., huA33-TCO pretargeting, 24 h interval",0.28 ± 0.07
OCc1cn(Cc2ccc(-c3noc(-c4ccc(OCC[18F])c(C(F)(F)F)c4)n3)cc2)nn1,,"female Lewis rat, spleen","intravenous, 120 min",1.14 ± 0.1
O=C([O-])CN1CCN(CC(=O)[O-])CCN(CC(=O)NCCc2ccc3c(c2)C2C=CCC2C(c2cc4c(cc2Br)OCO4)N3)CCN(CC(=O)[O-])CC1.[111In+3] (stereo not shown),,"mouse, Hec50 endometrial tumour, muscle",0.5 h post injection,0.69 ± 0.1
O=C(O)C1CN(Cc2ccc(-c3noc(-c4ccc(OCC[18F])c(C(F)(F)F)c4)n3)cc2)C1,,"male Sprague-Dawley rat, kidney","intravenous, 60 min",1.12 ± 0.052
CCCC[C@H](NC(=O)CNC(=O)CNC(=O)CN1CCN(CC(=O)O)CCN(CC(=O)O)CC1)C(=O)N[C@H]1CC(=O)NCCCC[C@@H](C(N)=O)NC(=O)[C@H](Cc2c[nH]c3ccccc23)NC(=O)[C@H](CCCNC(=N)N)NC(=O)[C@@H](Cc2ccccc2)NC(=O)[C@H](Cc2c[nH]cn2)NC1=O [gallium-67 labelled],,"female C57 mice, B16/F1 melanoma, tumor","intravenous, 0.037 MBq, 2 h",25.1 ± 1.03
CCCC[C@H](NC(=O)CNC(=O)CNC(=O)CN1CCN(CC(=O)O)CCN(CC(=O)O)CCN(CC(=O)O)CC1)C(=O)N[C@H]1CC(=O)NCCCC[C@@H](C(N)=O)NC(=O)[C@H](Cc2c[nH]c3ccccc23)NC(=O)[C@H](CCCNC(=N)N)NC(=O)[C@@H](Cc2ccccc2)NC(=O)[C@H](Cc2c[nH]cn2)NC1=O [copper-64 labelled],,"female C57 mouse, B16/F1 melanoma, tumor","intravenous, 0.037 MBq, 2 h",5.2 ± 1.28
O=C([O-])CN1CCN(CC(=O)[O-])CCN(CC(=O)[O-])CCN(CC(=O)[O-])CC1.[64Cu+2],,"healthy athymic nude mice, large intestine","intravenous, 4 h",2.19
CC(C)[C@H](NC(=O)[C@@H]1CCCN1C(=O)[C@H](CCCNC(=N)N)NC(=O)[C@H](CS)NC(=O)[C@H](Cc1c[nH]c2ccccc12)NC(=O)[C@H](CCCNC(=N)N)NC(=O)[C@@H](Cc1ccccc1)NC(=O)[C@H](Cc1c[nH]cn1)NC(=O)[C@H](CCC(=O)O)NC(=O)[C@H](CS)NC(=O)[C@H](CS)NC(=O)[C@@H]1CC(=O)N[C@@H](CCCNC(=N)N)C(=O)NCC(=O)N[C@@H](CC(=O)O)C(=O)N[C@H](Cc2ccc(O)cc2)C(=O)N1)C(N)=O [technetium-99m labelled],,"C57 mouse, female, B16/F1 melanoma, skin","intravenous, 0.037 MBq, 2 h",1.25 ± 0.31
CCCC[C@H](NC(=O)CNC(=O)CNC(=O)CN1CCN(CC(=O)O)CCN(CC(=O)O)CC1)C(=O)N[C@H]1CC(=O)NCCCC[C@@H](C(N)=O)NC(=O)[C@H](Cc2c[nH]c3ccccc23)NC(=O)[C@H](CCCNC(=N)N)NC(=O)[C@@H](Cc2ccccc2)NC(=O)[C@H](Cc2c[nH]cn2)NC1=O [copper-64 labelled],,"female C57 mouse, B16/F1 melanoma, brain","intravenous, 0.037 MBq, 4 h",0.07 ± 0.04
CCCC[C@@H]1NC(=O)[C@@H](NC(=O)[C@H](CCC(=O)O)NC(=O)CNC(=O)CN2CCN(CC(=O)O)CCN(CC(=O)O)CCN(CC(=O)O)CC2)CCCCNC(=O)C[C@@H](C(N)=O)NC(=O)[C@H](C(C)C)NC(=O)[C@@H]2CCCN2C(=O)[C@H](CCCNC(=N)N)NC(=O)CNC(=O)[C@H](Cc2c[nH]c3ccccc23)NC(=O)[C@H](CCCNC(=N)N)NC(=O)[C@@H](Cc2ccccc2)NC(=O)[C@H](Cc2c[nH]cn2)NC(=O)[C@H](CCC(=O)O)NC1=O [gallium-67 labelled],,"normal C57 mice, heart","intravenous, 0.037 MBq, 2 h",0.09 ± 0.06
